Experimental data pooled from the literature.
Compare with care: the assays were run in different laboratories. ± gives the spread as reported.

Cn1nc2c(=O)n(C3CC3)ccc2c1[C@](O)(c1ccc(C(F)(F)F)nc1)C1CC1
oral bioavailability (Sprague-Dawley rat, male; oral, 3 mg/kg; reference: IV 1 mg/kg): ~35%

CCOCC(=O)N1CCC[C@H](C(=O)NCc2nc(-c3ccc(C#N)nc3)cs2)C1
oral bioavailability (Sprague-Dawley rat, male, plasma; oral, 3 mg/kg): 69%

Cc1nc(Nc2ncc(C(=O)Nc3c(C)cccc3Cl)s2)cc(N2CC[C@H](N)C2)n1
oral bioavailability (Sprague-Dawley rats male, plasma; oral, 5 mg/kg, IV 1 mg/kg): < 1%

C=CCn1c(=O)c2cnc(Nc3ccc(N4CCN(C)CC4)cc3)nc2n1-c1ccc2c(n1)[C@@](O)(CC)CC2
oral bioavailability (rat; oral, 60 mg/kg): 47%

COc1ccc2c(=O)n(C)c(-c3ccccc3)nc2c1
oral bioavailability (Sprague-Dawley rat, male; oral, 10 mg/kg; reference: IV 2 mg/kg): 9.03 ± 2.66%

CCOC(=O)[C@@]12C[C@@H]1[C@@H](n1ccc3c(NC)nc(C#Cc4ccc(Cl)s4)nc31)[C@H](O)[C@@H]2O
oral bioavailability (Sprague-Dawley rat, male, plasma; oral, 10 mg/kg): 59.6%

CCOCC(=O)N1CCC[C@H](C(=O)NCc2nc(-c3ccc(C)nc3)cs2)C1
oral bioavailability (Sprague-Dawley rat, male, plasma; oral, 3 mg/kg): 63%

O=C1NC(=O)[C@](CNC(=O)c2ccccc2-c2ccc(C(F)(F)F)cc2)(C2CC2)N1
oral bioavailability (rat Wistar male; oral): 86%

COCC(=O)N1CCC[C@H](C(=O)NCc2nc(-c3ccc(C#N)cc3)cs2)C1
oral bioavailability (Sprague-Dawley rat, male, plasma; oral, 3 mg/kg): 54%

CNC(=O)c1cccc(-c2ccc(O[C@H]3O[C@H](CO)[C@@H](O)[C@H](O)[C@@H]3O)c(C)c2)c1
oral bioavailability (male Sprague-Dawley rat, plasma; oral, 10 mg/kg, unit not given; reference: IV 3 mg/kg): 0.0134

CCONC(=O)N1CCC[C@H](C(=O)NCc2nc(-c3ccc(C#N)cc3)cs2)C1
oral bioavailability (Sprague-Dawley rat, male, plasma; oral, 3 mg/kg): 19%

N=C(N)NCCNC(=O)C1(Nc2ccccc2)CCN(Cc2ccccc2)CC1
oral bioavailability (male Sprague-Dawley rats, plasma; 50 and 2.5 mg/kg): 1.2 ± 0.2%

O=C1c2ccncc2C(=O)c2c1[nH]c1ccccc21
oral bioavailability (Sprague-Dawley rat, female, plasma; oral, 1 mg/kg; reference: intravenous AUC(0-t)): 12.6%

CC[C@@](O)(c1cnc(C(F)(F)F)c(Cl)c1)c1c2ccn(C3CC3)c(=O)c2nn1C
oral bioavailability (Sprague-Dawley rat, male; oral, 3 mg/kg; reference: IV 1 mg/kg): 68%

[2H]c1cc(C)c(NC(=O)c2cnc(Nc3cc(N4CCC(O)CC4)nc(C)n3)s2)c(Cl)c1
oral bioavailability (Sprague-Dawley rats male, plasma; oral, 5 mg/kg, IV 1 mg/kg): 18.3%

Some of these lines once more:
N=C(N)NCCNC(=O)C1(Nc2ccccc2)CCN(Cc2ccccc2)CC1
oral bioavailability (male Sprague-Dawley rats, plasma; 50 and 2.5 mg/kg): 1.2 ± 0.2%
